Experimental data of several laboratories.
Lines come from different studies, so protocols differ.
folP: Dihydropteroate synthase (folP, Bacteria, UniProt P0AC13)
Sequence of UniProt P0AC13 (whole entry, looked up): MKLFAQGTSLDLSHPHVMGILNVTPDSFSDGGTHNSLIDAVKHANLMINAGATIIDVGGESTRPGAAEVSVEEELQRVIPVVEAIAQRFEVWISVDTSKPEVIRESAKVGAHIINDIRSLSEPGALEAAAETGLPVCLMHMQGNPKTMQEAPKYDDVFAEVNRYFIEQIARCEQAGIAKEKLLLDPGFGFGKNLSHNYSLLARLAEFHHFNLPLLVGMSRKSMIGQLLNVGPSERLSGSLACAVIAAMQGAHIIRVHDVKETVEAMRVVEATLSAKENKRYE
Sequence of UniProt O94762 (whole entry, looked up): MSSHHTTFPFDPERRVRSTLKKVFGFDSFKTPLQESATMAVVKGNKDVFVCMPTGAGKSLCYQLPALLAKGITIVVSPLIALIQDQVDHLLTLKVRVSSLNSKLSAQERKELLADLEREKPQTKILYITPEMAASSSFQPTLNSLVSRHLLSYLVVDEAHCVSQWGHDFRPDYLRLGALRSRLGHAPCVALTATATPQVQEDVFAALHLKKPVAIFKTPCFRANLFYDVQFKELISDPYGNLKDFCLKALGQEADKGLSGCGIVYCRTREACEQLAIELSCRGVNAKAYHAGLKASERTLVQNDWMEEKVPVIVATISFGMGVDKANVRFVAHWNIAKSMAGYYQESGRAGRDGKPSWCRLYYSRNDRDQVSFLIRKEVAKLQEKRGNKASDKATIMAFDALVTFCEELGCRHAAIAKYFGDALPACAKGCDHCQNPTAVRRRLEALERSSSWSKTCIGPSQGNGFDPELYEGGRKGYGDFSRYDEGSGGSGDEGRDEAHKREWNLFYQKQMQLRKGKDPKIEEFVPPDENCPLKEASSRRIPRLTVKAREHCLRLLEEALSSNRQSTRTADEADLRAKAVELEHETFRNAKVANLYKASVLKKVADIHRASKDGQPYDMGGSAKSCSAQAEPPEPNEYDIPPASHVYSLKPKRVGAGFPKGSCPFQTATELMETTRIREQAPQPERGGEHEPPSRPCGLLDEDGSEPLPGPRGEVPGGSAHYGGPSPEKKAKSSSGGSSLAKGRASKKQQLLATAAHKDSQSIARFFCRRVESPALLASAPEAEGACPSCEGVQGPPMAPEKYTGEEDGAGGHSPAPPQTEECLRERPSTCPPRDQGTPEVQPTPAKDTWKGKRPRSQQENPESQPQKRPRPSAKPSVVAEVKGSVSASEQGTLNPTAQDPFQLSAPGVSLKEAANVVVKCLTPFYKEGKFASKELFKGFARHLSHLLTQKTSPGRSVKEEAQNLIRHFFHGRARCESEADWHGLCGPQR
Sequence of UniProt Q13148 (whole entry, looked up): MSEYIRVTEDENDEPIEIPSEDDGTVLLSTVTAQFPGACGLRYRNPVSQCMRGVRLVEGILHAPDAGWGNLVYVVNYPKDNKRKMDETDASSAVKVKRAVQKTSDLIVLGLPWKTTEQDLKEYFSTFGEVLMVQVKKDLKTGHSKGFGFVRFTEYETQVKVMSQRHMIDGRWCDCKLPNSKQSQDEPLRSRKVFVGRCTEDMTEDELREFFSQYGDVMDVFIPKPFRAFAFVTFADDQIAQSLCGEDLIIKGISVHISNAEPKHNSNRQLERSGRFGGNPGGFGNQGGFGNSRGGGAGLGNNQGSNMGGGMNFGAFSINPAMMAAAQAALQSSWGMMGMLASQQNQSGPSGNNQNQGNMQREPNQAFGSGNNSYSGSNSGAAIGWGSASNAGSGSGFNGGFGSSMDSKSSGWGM
Sequence of UniProt Q9NSA0 (whole entry, looked up): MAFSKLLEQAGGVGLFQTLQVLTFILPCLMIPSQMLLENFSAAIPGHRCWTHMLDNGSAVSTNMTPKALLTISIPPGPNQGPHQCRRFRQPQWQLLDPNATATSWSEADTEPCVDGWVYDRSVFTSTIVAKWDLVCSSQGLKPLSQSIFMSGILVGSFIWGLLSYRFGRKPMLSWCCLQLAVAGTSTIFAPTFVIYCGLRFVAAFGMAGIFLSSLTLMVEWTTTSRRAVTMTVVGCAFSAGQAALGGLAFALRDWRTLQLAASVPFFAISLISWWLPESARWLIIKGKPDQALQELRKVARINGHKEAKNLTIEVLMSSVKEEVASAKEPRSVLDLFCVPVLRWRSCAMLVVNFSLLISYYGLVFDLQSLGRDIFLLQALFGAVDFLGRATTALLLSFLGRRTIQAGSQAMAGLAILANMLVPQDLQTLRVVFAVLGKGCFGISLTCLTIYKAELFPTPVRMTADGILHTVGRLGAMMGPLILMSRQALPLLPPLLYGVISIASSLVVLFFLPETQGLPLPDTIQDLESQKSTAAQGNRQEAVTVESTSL
Sequence of UniProt O94900 (whole entry, looked up): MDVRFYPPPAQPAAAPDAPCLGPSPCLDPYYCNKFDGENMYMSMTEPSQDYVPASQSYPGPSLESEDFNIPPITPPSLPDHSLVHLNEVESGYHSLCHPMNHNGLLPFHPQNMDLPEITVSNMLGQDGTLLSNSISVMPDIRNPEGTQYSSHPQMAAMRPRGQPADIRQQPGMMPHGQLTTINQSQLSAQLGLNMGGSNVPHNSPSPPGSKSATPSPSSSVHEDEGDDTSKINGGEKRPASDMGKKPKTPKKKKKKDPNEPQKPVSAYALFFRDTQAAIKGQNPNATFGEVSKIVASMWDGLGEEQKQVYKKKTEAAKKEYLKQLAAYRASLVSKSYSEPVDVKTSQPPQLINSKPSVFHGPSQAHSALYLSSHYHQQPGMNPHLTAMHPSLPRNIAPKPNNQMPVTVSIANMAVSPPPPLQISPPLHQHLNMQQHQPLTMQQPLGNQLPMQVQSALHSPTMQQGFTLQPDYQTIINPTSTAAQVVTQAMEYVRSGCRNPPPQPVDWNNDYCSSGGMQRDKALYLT
Sequence of UniProt Q9HB29 (whole entry, looked up): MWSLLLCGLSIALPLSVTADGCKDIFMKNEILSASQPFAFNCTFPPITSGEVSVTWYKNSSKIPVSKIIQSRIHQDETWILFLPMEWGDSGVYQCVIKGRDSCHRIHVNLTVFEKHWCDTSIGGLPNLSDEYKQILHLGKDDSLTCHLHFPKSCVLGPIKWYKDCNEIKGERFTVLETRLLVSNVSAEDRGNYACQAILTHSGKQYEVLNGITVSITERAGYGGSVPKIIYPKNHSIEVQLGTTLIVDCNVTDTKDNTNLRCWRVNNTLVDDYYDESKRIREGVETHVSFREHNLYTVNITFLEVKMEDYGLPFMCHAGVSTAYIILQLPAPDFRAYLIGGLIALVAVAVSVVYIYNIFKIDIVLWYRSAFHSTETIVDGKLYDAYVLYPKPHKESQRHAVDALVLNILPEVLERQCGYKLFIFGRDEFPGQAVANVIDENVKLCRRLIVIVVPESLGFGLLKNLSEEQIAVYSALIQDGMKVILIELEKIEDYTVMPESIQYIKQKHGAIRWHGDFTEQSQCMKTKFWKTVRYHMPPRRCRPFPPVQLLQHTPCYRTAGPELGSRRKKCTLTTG

`COc1cc(Nc2nccc(-c3cnn4nc(OC)ccc34)n2)cc(C(F)(F)F)c1` gave a remaining binding of 76% (FLT3 (Homo sapiens, UniProt P36888, N841I); binding; 1 µM).
The remaining activity of `COc1ccccc1-c1ccncc1C(=O)Nc1nnc(OCc2ccc(Cl)cc2)s1` is reported as 101% (RECQL5 (Homo sapiens, UniProt O94762); ATPase activity, ADP-Glo; 0.03 µM, 1 h).
Under “melting temperature shift”, `CCOC(=O)Cc1n[nH]c2nc(N)[nH]c(=O)c2c1=O` is recorded as 13.7 °C (folP; CETSA HiBiT; Escherichia coli, cell lysate; concentration not given; baseline: DMSO).
For `CC(C)[C@@H]1NC(=O)[C@H](Cc2ccccc2)NC(=O)CSC[C@@H](C(N)=O)NC(=O)[C@H](CCC(=O)O)NC(=O)[C@H](CO)NC(=O)[C@H](Cc2c[nH]c3cccc(Cl)c23)NC(=O)[C@H](C2CCCCC2)NC(=O)[C@H](C(C)C)NC(=O)[C@H](Cc2ccc(O)cc2)NC(=O)[C@H](CC(=O)O)NC(=O)[C@H](Cc2c[nH]c3ccccc23)NC(=O)[C@H](Cc2ccc(N)nc2)NC(=O)[C@H](Cc2c[nH]c3ccc(Cl)cc23)NC(=O)[C@H](CCC(=O)O)NC1=O`, the remaining activity was 96.3% (Interleukin-1 receptor-like 2 (IL1RL2, Homo sapiens, UniProt Q9HB29); reporter gene (SEAP), inhibitor, HEK-Blue IL-36R reporter; HEK-Blue IL-36R cells; 1.23 µM, 6 h, together with: IL-36β 30 ng/mL).
`Cn1nc(C(=O)O)c(=O)c2c(=O)[nH]c(N)nc21` gave a melting temperature of 65.6 °C (folP; CETSA HiBiT; whole cells).
`O=C1c2sc(-c3ccc(N4CCC(F)C4)nc3F)nc2CCN1c1cccnc1` (stereo not shown) has a specific binding of 146 nM (TAR DNA-binding protein 43, aggregated (TARDBP, Homo sapiens, UniProt Q13148); saturation autoradiography; human, FTLD-TDP type A brain sections; 12 nM).
With `COCCCCCNc1nc(NCCCCCCN(C)C)c2cc(NC(=O)/C=C/CN(C)C)ccc2n1` the remaining signal was 124% (SETDB1 (Homo sapiens, UniProt Q15047); cell-free assay, inhibitor, FP; 3.906 nM).
`N#Cc1c(N)nc2c(c1-c1ccc(CO)o1)Cc1cc(O)ccc1-2` has a fold change of -4.96 (Thymocyte selection-associated high mobility group box protein TOX (Homo sapiens, UniProt O94900); IP-MS, refers to: histone H1.0; MOLT-4; 10 µM; baseline: DMSO).
The binding stoichiometry of `CC[C@H](C)[C@H](NC(=O)[C@H](CCC(=O)O)NC(=O)[C@H](CCC(=O)O)NC(=O)[C@H](Cc1ccccc1)NC(=O)[C@H](CCCCN)NC(=O)[C@@H]1CCCN1C(=O)[C@H](Cc1c[nH]cn1)NC(=O)[C@H](CCCCN)NC(=O)[C@H](CO)NC(=O)[C@H](CC(C)C)NC(=O)[C@H](Cc1c[nH]cn1)NC(C)=O)C(=O)N[C@@H](CC(C)C)C(=O)N[C@H](C(=O)N[C@@H](CCCNC(=N)N)C(=O)N[C@@H](CC(C)C)C(=O)N[C@@H](CCCNC(=N)N)C(=O)N[C@@H](CC(C)C)C(=O)N[C@@H](CCC(N)=O)C(N)=O)[C@@H](C)O` is reported as 1.03 (Calmodulin-1, C-lobe (CALM1, Homo sapiens, UniProt P0DP23); ITC; concentration not given, C-lobe fragment, together with: CaCl2 1 mM).
Under “dissociation rate constant”, `O=C(NS(=O)(=O)c1cccs1)c1cc2ccccc2n1Cc1ccc(Br)c2ccccc12` is recorded as 0.532 s⁻¹ (SLC22A11 (Homo sapiens, UniProt Q9NSA0); binding, surface plasmon resonance).

Repeated from above:
Under “dissociation rate constant”, `O=C(NS(=O)(=O)c1cccs1)c1cc2ccccc2n1Cc1ccc(Br)c2ccccc12` is recorded as 0.532 s⁻¹ (SLC22A11 (Homo sapiens, UniProt Q9NSA0); binding, surface plasmon resonance).
